Measurements gathered from unrelated publications.
A part holds a random share of what one study measured.
Chain of UniProt P53667 (whole entry, looked up): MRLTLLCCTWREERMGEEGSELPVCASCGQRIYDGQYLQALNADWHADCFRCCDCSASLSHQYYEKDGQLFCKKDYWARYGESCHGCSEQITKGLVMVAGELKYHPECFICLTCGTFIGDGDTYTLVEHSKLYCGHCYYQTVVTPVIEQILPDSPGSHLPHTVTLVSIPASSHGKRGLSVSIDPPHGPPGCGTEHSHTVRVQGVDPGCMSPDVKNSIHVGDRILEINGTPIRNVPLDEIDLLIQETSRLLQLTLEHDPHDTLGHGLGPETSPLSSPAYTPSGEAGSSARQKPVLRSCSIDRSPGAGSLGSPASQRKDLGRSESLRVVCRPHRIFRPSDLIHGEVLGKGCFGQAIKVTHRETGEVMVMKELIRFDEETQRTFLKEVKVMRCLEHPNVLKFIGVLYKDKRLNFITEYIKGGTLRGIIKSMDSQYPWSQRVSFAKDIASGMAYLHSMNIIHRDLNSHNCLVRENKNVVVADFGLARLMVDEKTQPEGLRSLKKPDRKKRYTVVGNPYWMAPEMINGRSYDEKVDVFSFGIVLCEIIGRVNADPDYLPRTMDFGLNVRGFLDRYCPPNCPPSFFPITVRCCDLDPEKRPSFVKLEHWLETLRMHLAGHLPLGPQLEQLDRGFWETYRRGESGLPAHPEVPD
Chain of UniProt O15197 (whole entry, looked up): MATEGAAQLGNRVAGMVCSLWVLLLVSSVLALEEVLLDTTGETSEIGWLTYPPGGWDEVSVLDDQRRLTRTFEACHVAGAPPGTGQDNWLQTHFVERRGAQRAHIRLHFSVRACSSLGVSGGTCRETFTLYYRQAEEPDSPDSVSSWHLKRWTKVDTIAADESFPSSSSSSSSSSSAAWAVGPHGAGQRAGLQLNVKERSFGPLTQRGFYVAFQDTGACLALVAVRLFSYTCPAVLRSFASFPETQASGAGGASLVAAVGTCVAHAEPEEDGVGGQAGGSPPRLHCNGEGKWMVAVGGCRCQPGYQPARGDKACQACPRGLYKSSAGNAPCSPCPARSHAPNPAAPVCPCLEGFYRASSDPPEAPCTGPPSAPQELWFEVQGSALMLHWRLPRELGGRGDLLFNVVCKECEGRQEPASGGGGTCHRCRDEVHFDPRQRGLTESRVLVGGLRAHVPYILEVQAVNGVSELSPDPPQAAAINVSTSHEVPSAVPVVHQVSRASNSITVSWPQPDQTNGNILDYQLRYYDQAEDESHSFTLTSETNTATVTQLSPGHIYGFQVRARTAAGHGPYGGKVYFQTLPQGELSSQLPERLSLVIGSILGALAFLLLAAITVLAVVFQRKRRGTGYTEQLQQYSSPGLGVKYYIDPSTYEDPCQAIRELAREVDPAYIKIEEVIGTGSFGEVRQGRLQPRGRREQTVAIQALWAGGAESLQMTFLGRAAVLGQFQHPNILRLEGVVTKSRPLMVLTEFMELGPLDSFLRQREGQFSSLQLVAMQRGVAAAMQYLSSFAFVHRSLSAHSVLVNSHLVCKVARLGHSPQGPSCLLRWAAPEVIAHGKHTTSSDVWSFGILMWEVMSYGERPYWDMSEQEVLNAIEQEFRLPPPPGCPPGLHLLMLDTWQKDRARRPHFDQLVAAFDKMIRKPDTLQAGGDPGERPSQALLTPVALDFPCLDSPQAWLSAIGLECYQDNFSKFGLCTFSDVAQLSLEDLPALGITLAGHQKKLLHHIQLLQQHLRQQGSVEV
Chain of UniProt P29317 (whole entry, looked up): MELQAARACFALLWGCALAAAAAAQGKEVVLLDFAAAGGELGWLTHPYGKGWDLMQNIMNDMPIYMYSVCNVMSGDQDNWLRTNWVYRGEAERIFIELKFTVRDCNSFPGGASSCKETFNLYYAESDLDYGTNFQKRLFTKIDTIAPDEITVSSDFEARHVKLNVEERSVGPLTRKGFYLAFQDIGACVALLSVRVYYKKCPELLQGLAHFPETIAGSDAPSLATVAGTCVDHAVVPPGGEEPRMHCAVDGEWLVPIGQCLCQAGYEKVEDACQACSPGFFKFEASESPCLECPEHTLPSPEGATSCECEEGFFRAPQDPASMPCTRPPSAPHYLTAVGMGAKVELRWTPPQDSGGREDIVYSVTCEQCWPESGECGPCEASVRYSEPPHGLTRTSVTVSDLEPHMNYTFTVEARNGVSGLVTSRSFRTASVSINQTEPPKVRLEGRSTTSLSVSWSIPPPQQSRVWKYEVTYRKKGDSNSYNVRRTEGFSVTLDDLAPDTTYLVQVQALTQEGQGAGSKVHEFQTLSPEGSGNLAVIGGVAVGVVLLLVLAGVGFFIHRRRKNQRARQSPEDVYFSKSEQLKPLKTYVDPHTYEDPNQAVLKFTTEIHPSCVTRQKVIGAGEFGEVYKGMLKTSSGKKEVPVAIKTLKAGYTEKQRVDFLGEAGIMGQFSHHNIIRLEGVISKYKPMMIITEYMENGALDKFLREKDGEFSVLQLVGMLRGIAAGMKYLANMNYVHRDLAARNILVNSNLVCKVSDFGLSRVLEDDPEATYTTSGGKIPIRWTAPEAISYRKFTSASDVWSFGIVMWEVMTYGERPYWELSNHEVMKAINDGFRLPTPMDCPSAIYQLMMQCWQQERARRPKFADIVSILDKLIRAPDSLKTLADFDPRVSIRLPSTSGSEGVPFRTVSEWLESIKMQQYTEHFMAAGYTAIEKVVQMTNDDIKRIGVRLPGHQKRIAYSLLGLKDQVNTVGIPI
Chain of UniProt O75582 (whole entry, looked up): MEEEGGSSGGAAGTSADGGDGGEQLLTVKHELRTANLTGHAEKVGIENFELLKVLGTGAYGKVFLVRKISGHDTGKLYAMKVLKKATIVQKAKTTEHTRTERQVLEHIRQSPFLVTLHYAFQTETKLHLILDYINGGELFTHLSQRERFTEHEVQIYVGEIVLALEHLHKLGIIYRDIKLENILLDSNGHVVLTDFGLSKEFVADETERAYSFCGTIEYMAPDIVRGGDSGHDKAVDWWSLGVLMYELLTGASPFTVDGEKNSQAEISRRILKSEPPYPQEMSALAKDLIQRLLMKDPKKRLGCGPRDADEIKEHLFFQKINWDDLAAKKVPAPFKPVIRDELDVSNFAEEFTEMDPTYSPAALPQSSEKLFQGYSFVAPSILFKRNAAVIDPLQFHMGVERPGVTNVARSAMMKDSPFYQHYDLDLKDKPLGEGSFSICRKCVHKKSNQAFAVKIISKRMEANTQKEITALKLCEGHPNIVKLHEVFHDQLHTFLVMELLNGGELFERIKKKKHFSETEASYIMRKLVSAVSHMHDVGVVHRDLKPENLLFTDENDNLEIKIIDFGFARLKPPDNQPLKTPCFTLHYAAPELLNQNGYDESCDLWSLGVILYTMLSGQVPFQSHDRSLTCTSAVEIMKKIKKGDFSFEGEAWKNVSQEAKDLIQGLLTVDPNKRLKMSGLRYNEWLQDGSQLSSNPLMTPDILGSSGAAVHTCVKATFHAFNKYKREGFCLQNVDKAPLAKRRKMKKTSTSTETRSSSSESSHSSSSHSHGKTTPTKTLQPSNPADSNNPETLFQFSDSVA

Study 1 — observed: enzyme activity; mode: inhibitor; tested at: 0.5 µM; baseline: control
Target: RAC-gamma serine/threonine-protein kinase (AKT3, Homo sapiens, UniProt Q9Y243)
Chain of UniProt Q9Y243 (whole entry, looked up): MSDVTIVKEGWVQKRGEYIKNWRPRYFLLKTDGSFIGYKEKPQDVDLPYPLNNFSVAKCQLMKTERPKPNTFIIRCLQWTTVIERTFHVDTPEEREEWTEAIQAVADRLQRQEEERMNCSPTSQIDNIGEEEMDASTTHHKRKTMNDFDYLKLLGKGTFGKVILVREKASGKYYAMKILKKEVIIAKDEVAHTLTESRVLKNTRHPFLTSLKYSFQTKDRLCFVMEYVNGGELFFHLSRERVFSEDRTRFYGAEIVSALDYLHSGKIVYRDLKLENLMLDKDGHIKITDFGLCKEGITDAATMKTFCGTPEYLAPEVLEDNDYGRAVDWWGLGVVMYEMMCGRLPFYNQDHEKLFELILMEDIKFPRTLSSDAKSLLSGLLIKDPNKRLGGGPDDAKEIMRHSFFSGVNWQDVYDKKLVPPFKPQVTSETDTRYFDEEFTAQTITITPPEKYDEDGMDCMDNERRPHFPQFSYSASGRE
SMILES | remaining activity [%]
CNC(=O)c1cc(Oc2ccc(NC(=O)Nc3ccc(Cl)c(C(F)(F)F)c3)cc2)ccn1 | 94.2
NCCNc1ncc(C(N)=O)c(Nc2cccc(C(F)(F)F)c2)n1 | 88.9
Nc1ccc2ncnc(NCCc3ccc(Oc4ccccc4)cc3)c2c1 | 104
CN(C)c1ccc(C=C2C(=O)Nc3ccccc32)cc1 | 103
Cn1sc(=O)n(Cc2ccccc2)c1=O | 96.6
COc1ccc(CNC(=O)Nc2ncc([N+](=O)[O-])s2)cc1 | 95.9
O=C(O)c1ccc2c3c1cccc3c(=O)n1c3ccccc3nc21 | 104
O=C1NC(=O)C(c2cn(CCCn3ccnc3)c3ccccc23)=C1Nc1ccccc1 | 71
COc1cc2ncnc(Nc3ccc(F)c(Cl)c3)c2cc1OCCCN1CCOCC1 | 84.6
O=S(=O)(c1cccc2cnccc12)N1CCCNCC1 | 94.1
Cc1nc(-c2ccccc2)c(-c2ccncc2)o1 | 106
COc1ccc(OC)c2c(=S)c3ccccc3[nH]c12 | 92

Study 2 — technique: competition protein-binding microarray; form: double-stranded DNA, one strand shown; medium: in vitro; tested at: 2 µM; added: Cbf1 competitor, 0.05 µM; reading: higher = stronger binding; constant ends, left off below: … GTCTTGATTCGCTTGACGCTGCTG
Target: Phosphate system positive regulatory protein PHO4, full length, GST-tagged (PHO4, Saccharomyces cerevisiae, UniProt P07270, residues 1-312)
Setting: whole 60-bp probe, lowest competitor level
Target sequence (chain): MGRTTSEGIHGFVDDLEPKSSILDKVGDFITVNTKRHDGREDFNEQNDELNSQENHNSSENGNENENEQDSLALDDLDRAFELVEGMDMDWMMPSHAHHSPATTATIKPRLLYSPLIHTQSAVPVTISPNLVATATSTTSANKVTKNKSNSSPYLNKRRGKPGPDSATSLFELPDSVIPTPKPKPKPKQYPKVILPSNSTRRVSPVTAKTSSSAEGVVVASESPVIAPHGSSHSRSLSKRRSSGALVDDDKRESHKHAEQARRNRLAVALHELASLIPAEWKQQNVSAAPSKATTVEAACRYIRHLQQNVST
Sequence | fluorescence intensity [a.u.]
AAAACAACATAAAAATCCGTGATGGTTTAATGGTCA | 3710
TATCTCTGATGTTTGCACGTGCTTTAGCAACTCTTT | 19600
CGCCGGGCGGCTTTGCACGTTTGAACAAGTATATCC | 10400
TGCGCAACAACTTGTGAAGTGGGTGTATGTCTAGAA | 4760
ATTCAAGAGATCCATCTCGTGACGGTGAAAAAATTT | 6340
AGGCAGAAACACTGACTCGTGGGTACGTCCACCCAG | 11200
ATTGGGATAACCAGGCACACGCTAATGCGAGATAGC | 7390
CTTATCCGAAGTTGAAATGTGACGGCTGCAATGGAT | 5270

Study 3 — technique: RNAcompete; form: RNA; medium: in vitro; tested at: 20 nM; setting: 7-mer, probes averaged, single round; baseline: mean of 7-mers; reading: higher = stronger binding
Target: PABPC1L2, full length, GST fusion (mouse, UniProt A0ABA7IW68)
Construct (chain): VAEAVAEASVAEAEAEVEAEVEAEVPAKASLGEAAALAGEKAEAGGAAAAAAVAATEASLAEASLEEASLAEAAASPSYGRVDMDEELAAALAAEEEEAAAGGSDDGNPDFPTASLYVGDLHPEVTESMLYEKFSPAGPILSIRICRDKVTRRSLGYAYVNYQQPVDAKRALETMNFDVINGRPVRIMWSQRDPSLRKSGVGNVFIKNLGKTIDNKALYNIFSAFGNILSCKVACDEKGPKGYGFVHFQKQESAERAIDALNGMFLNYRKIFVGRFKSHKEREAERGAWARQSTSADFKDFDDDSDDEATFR
Sequence | 7-mer Z-score
GGUUGGC | -0.0319
AGGCUUG | 0.017
GCCUACC | -0.273
UCCGAUG | -0.219
AACCGUA | -0.0754
UUUUCGG | -0.144
GUAUGCA | -0.191
CGAGCCC | -0.224

Study 4 — observed: cell-free assay; technique: competition with immobilised ligand; tested at: 1 µM
SMILES: NS(=O)(=O)c1cc(NC(=O)C2(c3ccccc3Cl)CC2)ccc1Oc1cccc(Cl)c1
target | remaining binding
EPHB6 (Homo sapiens, UniProt O15197) | 81%
Ribosomal protein S6 kinase alpha-5, C-terminal kinase domain (RPS6KA5, Homo sapiens, UniProt O75582) | 90%
LIM domain kinase 1 (LIMK1, Homo sapiens, UniProt P53667) | 100%
EPHA2 (Homo sapiens, UniProt P29317) | 80%

Repeated from above (study 1):
SMILES | remaining activity [%]
CNC(=O)c1cc(Oc2ccc(NC(=O)Nc3ccc(Cl)c(C(F)(F)F)c3)cc2)ccn1 | 94.2
NCCNc1ncc(C(N)=O)c(Nc2cccc(C(F)(F)F)c2)n1 | 88.9
Nc1ccc2ncnc(NCCc3ccc(Oc4ccccc4)cc3)c2c1 | 104
CN(C)c1ccc(C=C2C(=O)Nc3ccccc32)cc1 | 103
